# Measurements gathered from unrelated publications.
# Parts stem from different laboratories: compare values within a part only. Substitutions count along the parent as printed.

# Block 1
# Target: PABPC1L2, full length, GST fusion (mouse, UniProt A0ABA7IW68)
# Method: RNAcompete
# Form: RNA
# Medium: in vitro
# Tested at: 20 nM
# Notes: 7-mer, probes averaged, single round
# Reference: mean of 7-mers
# Direction: higher = stronger binding
# Target sequence (chain): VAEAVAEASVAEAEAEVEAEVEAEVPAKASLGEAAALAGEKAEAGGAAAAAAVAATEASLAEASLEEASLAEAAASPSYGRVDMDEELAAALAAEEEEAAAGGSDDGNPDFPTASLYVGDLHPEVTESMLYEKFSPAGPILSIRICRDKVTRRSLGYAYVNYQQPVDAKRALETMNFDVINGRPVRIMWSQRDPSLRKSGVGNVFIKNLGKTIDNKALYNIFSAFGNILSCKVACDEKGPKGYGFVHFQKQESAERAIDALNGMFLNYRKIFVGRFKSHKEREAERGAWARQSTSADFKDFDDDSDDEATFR
Strand,7-mer Z-score
UUAAUGU,-0.18
GCCAAGC,-0.307
GAUACCC,-0.349
UCAAUGG,-0.0101
GAAAGGC,0.262
CGCGUAG,-0.238
CUUCGUG,-0.304
GUCCUCA,-0.184
CAACACG,-0.0681
UCAGGAU,-0.012
AGAGGGG,0.247
CAUUAGA,0.0696
AUGGUCU,-0.231
UUCAGGA,-0.0627
CACCGAU,-0.0754
AAUUAGA,0.383
AUUGGAG,0.0533
UGAAUCG,-0.226
UGCAGGG,0.108
UUUUAGU,-0.0935
CCCUAUG,-0.441
ACUGUUG,-0.199
CCUUUCA,-0.407
GGUAGAG,0.0587

# Block 2
# Target: RNA binding protein fox-1 homolog 2, RRM domain, GST-SBP tag (RBFOX2, Homo sapiens, UniProt O43251-10, residues 100-194)
# Method: RNA Bind-n-Seq
# Form: RNA
# Medium: in vitro
# Tested at: 365 nM
# Notes: natural RNA segment, single round, ends assumed
# Reference: no-protein control
# Direction: higher = stronger binding
# All sequences stand within: GGGAGUUCUACAGUCCGACGAUC … UGGAAUUCUCGGGUGCCAA
# Target sequence (chain): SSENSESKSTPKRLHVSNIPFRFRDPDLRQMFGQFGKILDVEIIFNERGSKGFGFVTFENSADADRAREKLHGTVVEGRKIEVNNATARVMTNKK
Strand,RBNS enrichment (R)
GUACUCUGAAUGAAGAGCCUGUGCCUCCCUCUCUCCCCUAACAGUUUUAAGGAGAUACAAUUUACCUGCCACAAAAUUUACCCAUUUUAGGUUUAUACUUAGAUGGUUGU,0.609
UGAAGCCUCUCACUAACCCCUAGCUCCAGGAGUACCUCAGCAAUGUCCAUGGCUGAAGCUACACCCAGAGACAGAGCUGCAGAAUGAGAGAGACCCAGCCGGAGGGAUGC,0.389
AAAAAACCACAGUUGUAAUUUAAACUGCUUGAUAUAAAAAGAGGUAUCAUAGCAGGGAAAACACACUAAUUUUCAUACAGUAGAGGUAUUGAAAACUGAAAAUGGGAAGG,0.491
CUAAUCCCAAGUCAAUGCGUGUAUCCCCUGCCAGGCUGCCUCAGCCUCCCUCCCCAUUACCCACUCUGUCCCCGGGGUUCGGAGGAAUGGGCGAGCAGAAAAACCUUAGG,0.932
AUGUGCGUCCAUGCUUGAGUGAGCAAGCCAGCGUCCUUGUCCUCCUGCAAUGCCUUUGGGAAGCUCAGGGGAAUGCUCCCCAAGCUUGUUUCUGACACUAGAAUGCAACA,0.672
UGUUUUGUAAGCCACAUUGGUUCCUGUGAGCAUCUGACCGUCCCCCAUCGAGUAUUUCCCCCGGAACUGGAGAUUCGGGCGUCAUUUGGCUGCUACUUGCUUAGUGACUC,0.564
GAGUCCACAGGCAUUGCCUCUGACAGCUCCAGCGACUCUUCUAGCUCCUCUAGUUCCAGCUCGUCAGACUCGGACUCAGAGUGUGAAUCUGGGUCAGAAGGUGAUGGGAC,0.203
CCUCCUAACUUUUAUAGUUAUUUUGUUUUAUAUUUCUGAAUUCUUGUAUCAGAUCCAAAGCUCUAUUGUACAGCAAAUUAUUCUUCAAAGUGAUUAUAACCAGUUACAAC,0.556
GAAUCGCAUGUAGUAGAGCUGAAAGAAUUAAAGACCCGGCUUACAGCUUCAGAUGAAGCUUUAAGCUGCAGUGUUGUGAAGUGAUUAAUUCCCUUUCUACCAACCCCGUG,4.68
GCACUCUCAUCUGCAGGACUCUGCUUGAUCCUCUGCUUCAUAGCCCUUCCCCAUCUCUCCUCACCAUUCUGCCUACAAGGCUUCUAGCAGCACGGGGGCCCGGAGGGAGA,3.44
UUGCUUCUGCCCACCAAUCAGAGUCUGACUGGCAGUGUUAGUCUCCGACAGAGCUUGUACUAGGGCAGGAAUGGCAGAGACAGGGAUGAUGGUACCCAGAGUGGGCUGUG,0.964
CUUUUUGUUAGCCAAAGUGUUCUGUUUAUUUGGCUUGUCAUUUUCCGUGUGCUUUAAAAAGGUGUUGUUAUGAAGUUUGCUGUUCUGGCAAUAAACUUGCAGACCUUGGA,6.66

# Block 3
# Target: Histone acetyltransferase KAT6A, both winged helices, GST fusion (KAT6A, Homo sapiens, UniProt Q92794, residues 1-181)
# Method: protein binding microarray
# Form: double-stranded DNA, one strand shown
# Medium: in vitro
# Tested at: not given
# Notes: 8-mer, flanks averaged, mean of 2 arrays, mostly near background
# Reference: not given
# Direction: higher = stronger binding
# Residues (chain): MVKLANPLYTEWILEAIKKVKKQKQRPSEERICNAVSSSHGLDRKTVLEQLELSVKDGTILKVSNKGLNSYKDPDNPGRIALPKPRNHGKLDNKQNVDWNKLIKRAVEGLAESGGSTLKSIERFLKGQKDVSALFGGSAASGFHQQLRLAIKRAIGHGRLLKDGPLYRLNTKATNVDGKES
Strand,E-score
ACGGTAAC,0.222
CCGCGACG,0.31
ACTATTTA,0.00642
AACATAGA,-0.0444
GATTTTGC,-0.177
ATACTAAG,-0.092
CATTTCGA,-0.148
AGATATTC,-0.356
ATACGCAC,0.114
AAGAAAGT,-0.118
TCAACGGA,0.186
AGATCCAC,-0.181
ACCAGTTC,0.0424
GGTATCCA,0.0113
GTCGTCAC,0.0357
ATCCCGAC,0.171
ACTTGCGA,-0.0265
CGGGTATA,0.232
CGCCATCC,0.0597
ACCTCAAC,-0.127
CCGGGCAA,0.187
GTAAGAAC,-0.0477

# Block 4
# Target: XBP1, bZIP domain (human)
# Method: DHFR protein complementation
# Medium: yeast
# Notes: single substitutions, most at no-binding floor
# Reference: wild-type JUN-FOS pair
# Direction: higher = stronger binding
# Parent: JUN, bZIP domain (human); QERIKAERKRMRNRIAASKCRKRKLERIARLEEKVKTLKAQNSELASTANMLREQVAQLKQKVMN; partner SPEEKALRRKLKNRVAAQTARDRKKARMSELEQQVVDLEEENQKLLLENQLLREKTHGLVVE
Variant,binding fitness
E32D,-1.33 natural log
E32P,-1.5 natural log
A57S,-0.648 natural log
A49T,-1.23 natural log
A49Y,-0.71 natural log
L45Y,-1.54 natural log
N42H,-1.33 natural log
T48M,-0.662 natural log
R30K,-0.676 natural log
M51F,-0.804 natural log
T37Y,-0.773 natural log
K39Y,-1.23 natural log
Q41P,-1.49 natural log
E33A,-0.853 natural log
V56R,-1.47 natural log
T48F,-1.41 natural log
S47L,-0.722 natural log
K36C,-1.02 natural log
L45K,-1.49 natural log

# Block 5
# Target: Ras GTPase-activating protein-binding protein 1, RRM domain (G3BP1, Homo sapiens, UniProt Q13283)
# Sequence of UniProt Q13283 (whole entry, looked up): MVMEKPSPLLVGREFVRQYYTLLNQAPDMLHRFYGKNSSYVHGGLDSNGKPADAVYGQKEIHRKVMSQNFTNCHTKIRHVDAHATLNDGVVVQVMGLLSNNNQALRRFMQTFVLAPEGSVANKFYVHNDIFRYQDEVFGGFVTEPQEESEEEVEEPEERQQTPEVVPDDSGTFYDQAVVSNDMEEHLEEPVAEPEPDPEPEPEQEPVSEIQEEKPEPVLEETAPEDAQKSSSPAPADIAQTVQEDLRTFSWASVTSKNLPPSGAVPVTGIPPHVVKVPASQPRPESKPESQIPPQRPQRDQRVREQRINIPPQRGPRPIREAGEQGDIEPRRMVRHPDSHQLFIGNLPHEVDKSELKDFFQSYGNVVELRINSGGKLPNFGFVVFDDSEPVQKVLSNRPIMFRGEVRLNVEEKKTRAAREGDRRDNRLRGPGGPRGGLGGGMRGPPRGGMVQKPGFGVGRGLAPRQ
# Method: RNA Bind-n-Seq
# Form: RNA
# Medium: in vitro
# Tested at: 1 µM
# Notes: whole 134-nt RNA, ends assumed
# With: 150 mM KCl
# Reference: input library
# Direction: higher = stronger binding
# All sequences stand within: GGGAGUUCUACAGUCCGACGAUC … UGGAAUUCUCGGGUGUCAAGG
Strand,log2 enrichment
UGGGAGGUGGAUUUUGUUUAUUUUUUUAGCUCAUUUCCAGGGGUGGGAACUUUUUUUUAAUAUGUGUCAUGAAUAAAGUUGUUUUUGAAA,1.76
CCUGUGCUACACAUCGUAUGUACCGAAUCGGUUUUUUUGGUUUUUUUGGUUUUUUUGGGGAAAGUAUUAUGUUACGCCGUUCGGAUCUGC,-0.339
CACAGACAACACGCACCCACACAGACACAGAGGGAAGGGGUUGGGAUUGGGACAGGGUGCACAGCAGGGCGGGGUAGGACCCCAGCCCCU,-0.113
CAAGUCCUGUGCUACACAUCGUAUGUACCGAAUCGGAAAAAGGAGGUUUUUUUGGAAAGUAUUAUGUUACGCCGUUCGGAUCUGCACUUC,-0.0125
AAGUCCUGUGCUACACAUCGUAUGUACCGAAUCGGGUUUGGGGUUUGGGGUUUGGGAAAGUAUUAUGUUACGCCGUUCGGAUCUGCACUU,0.499
UCAAGUCCUGUGCUACACAUCGUAUGUACCGAAUCGGGUUUGGGUGGGUUUGGGAAAGUAUUAUGUUACGCCGUUCGGAUCUGCACUUCC,0.705
ACCAUGCAGGUGGGCAUCUUUGGGAAGUGGGGCAAGGGGGGGAUAGGGAGGGGGGUAACACUUUGGGAACAGUUGGUCCCAGGUCGUUUC,0.923
UAACUUUAGAGGAGGAUCUGAUGGAUAUGGCAGUGGACGUCGAUUUGGGGAUGGCUAUAAUGGGUAUGGAGGAGGACCUGGAGGUGGCAA,-0.321
CUGUGCUACACAUCGUAUGUACCGAAUCGGGGUUUUUUUGGGGAAAAAAAGGGGAAAGGGGAAAGUAUUAUGUUACGCCGUUCGGAUCUG,0.266
UAAGGCCAGUAAAAUUUUAGUACCUGGAGGUUUGACUCUAAUUUUUGCACUGAUGGUGCCAAAGGGCCCUGAGUCAAAAGGAUAGCCAAG,-0.283
UCAAGUCCUGUGCUACACAUCGUAUGUACCGAAUCGGGGAAGGGAAGGAAGGGGAAAGUAUUAUGUUACGCCGUUCGGAUCUGCACUUCC,0.35
ACCAUGCAGGUGGGCAUCCUUGGGAAGUGGGGCAAGGGGGGGAUAGGGAGGGGGGUAACACUUUGGGAACAGGUGGUCCCAGGUCGUUUC,-0.457
AAGUCCUGUGCUACACAUCGUAUGUACCGAAUCGGAAAAAGGUUUUUUUGGUUUGGAAAGUAUUAUGUUACGCCGUUCGGAUCUGCACUU,-0.521
CUCAAGUCCUGUGCUACACAUCGUAUGUACCGAAUCGGUUUGGUUUGGGUUUGGAAAGUAUUAUGUUACGCCGUUCGGAUCUGCACUUCC,-0.175

# Block 6
# Target: Interferon regulatory factor 3, full length, phosphomimetic (IRF3, Homo sapiens, UniProt Q14653, residues 1-427, S386D/S396D/S398D/S402D/T404D/S405D)
# Sequence of UniProt Q14653 (whole entry, unmodified, looked up): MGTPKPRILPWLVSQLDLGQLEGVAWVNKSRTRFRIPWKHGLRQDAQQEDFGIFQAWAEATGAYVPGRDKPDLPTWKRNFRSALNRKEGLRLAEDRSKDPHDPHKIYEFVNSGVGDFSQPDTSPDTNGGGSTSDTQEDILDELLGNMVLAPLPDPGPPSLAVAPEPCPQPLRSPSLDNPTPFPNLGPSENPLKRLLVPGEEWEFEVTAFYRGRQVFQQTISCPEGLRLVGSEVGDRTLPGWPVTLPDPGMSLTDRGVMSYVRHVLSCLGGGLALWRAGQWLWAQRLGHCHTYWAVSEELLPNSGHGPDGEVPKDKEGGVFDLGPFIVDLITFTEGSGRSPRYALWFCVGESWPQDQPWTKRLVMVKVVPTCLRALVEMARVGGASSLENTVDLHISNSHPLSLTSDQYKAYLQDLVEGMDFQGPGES
# Method: protein-binding microarray
# Form: double-stranded DNA, one strand shown
# Medium: in vitro
# Tested at: 2540 nM top
# Notes: 60-bp whole probe
# With: salmon DNA 0.4 mg/ml
# Reference: random background probes
# Direction: higher = stronger binding
# All sequences stand within: GCCTAGCAC … GTCTTGATTCGCTTGACGCTGCTG
Strand,fitted relative affinity
GACGGTATCTTACTGCTGACGTGCTAG,0.333 z-score
ACCACTTTTATTTTCAGTATGTGCTAG,2.63 z-score
GGTGTAAGGAACTGAAGTGAGTGCTAG,-0.548 z-score
GACGGTTTCGAGACTGGGGACGTGCTA,3.87 z-score
TTAGGTCTCGGTTTCGGTTTGTGCTAG,7.12 z-score
ATGCTACAATAAGTGTTAGTGTGCTAG,-0.171 z-score
CGCGCTTCTCGGCGGCGAAGGTGCTAG,-0.0911 z-score
TTAGGTTCCAGTTTCGGTTAGTGCTAG,7.56 z-score
TCAGGTCTGGGTATTTTACTGTGCTAG,-0.263 z-score
TTAGGACTGGACTATCCGTTAGTGCTA,-0.205 z-score
AGATATTTAGAACTTCTCCACGTGCTA,-0.00797 z-score
CAAAACATCATTGTCATATAGTGCTAG,0.796 z-score
TTCGATCTCAGTTTCGATTAGTGCTAG,3.65 z-score
TTAGGTTTCGACTACCGGTTAGTGCTA,2.01 z-score
TCAGTGCTCATCTGTCATACTGTGCTA,0.23 z-score
GTATTTGTCCCTATTTAAGAGTGCTAG,2.05 z-score
TTAGGTTTCGGGACTGGGTGAGTGCTA,4.34 z-score
GACGACTCCAGTTTCGAGACGTGCTAG,1.73 z-score
TTGGGTTTCCTTCTCCTTTAGTGCTAG,8.28 z-score
GACGTTATCCTTTTCCTGACGTGCTAG,4.94 z-score
GACGATTTAAGTCTCGAGACGTGCTAG,0.509 z-score
GACGGTTTCGACACCGGGGACGTGCTA,2.75 z-score

# A few entries again (block 1):
Strand,7-mer Z-score
CACCGAU,-0.0754
CAUUAGA,0.0696
AAUUAGA,0.383
CUUCGUG,-0.304
CCUUUCA,-0.407
UUUUAGU,-0.0935
CCCUAUG,-0.441
